Measured values pooled from the literature.
Each numbered part is a random draw from the data of one study; scales do not carry over between parts. Positions count from the first letter of the parent shown.

Set 1 — technique: EMSA with sequencing; form: double-stranded DNA, one strand shown; matrix: in vitro; tested at: 10 and 20 nM; baseline: negative control set to 0; reading: higher = stronger binding
Target: Hepatocyte nuclear factor 3-alpha (Foxa1, Mus musculus, UniProt P35582, residues 1-468, full length assumed)
Setting: whole designed probe, mean of two concentrations, ends assumed
Residues (chain): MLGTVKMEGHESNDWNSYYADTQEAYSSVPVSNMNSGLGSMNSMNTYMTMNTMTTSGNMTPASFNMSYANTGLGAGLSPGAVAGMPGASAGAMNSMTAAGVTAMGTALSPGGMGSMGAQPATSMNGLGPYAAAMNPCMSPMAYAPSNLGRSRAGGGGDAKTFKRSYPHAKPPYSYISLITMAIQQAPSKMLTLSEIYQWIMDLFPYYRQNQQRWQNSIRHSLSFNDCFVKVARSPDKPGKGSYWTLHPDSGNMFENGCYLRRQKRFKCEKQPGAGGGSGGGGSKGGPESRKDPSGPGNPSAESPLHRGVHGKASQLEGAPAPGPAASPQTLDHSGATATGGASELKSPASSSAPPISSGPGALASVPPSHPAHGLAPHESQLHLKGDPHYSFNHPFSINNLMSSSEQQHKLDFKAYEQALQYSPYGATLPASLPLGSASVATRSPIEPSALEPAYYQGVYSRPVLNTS
Sequence | normalised bound fraction [ratio]
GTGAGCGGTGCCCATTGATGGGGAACATACAGGTTTTATAACATATGTAGTTAAGGTTTCAAAAGTGAGATTATGTCTCAACTAACTATAACTGAAATAGAAGAGTGTATCTATTTCAATGTAAACATGTTGACTGATAATGAGAAAAATGATCCTTATAAAGAATAGCAAATCATGATCCTAAGACAGTAAGTGTCAAAGCTGATGGGAGGATGCTATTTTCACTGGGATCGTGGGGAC | 0.244
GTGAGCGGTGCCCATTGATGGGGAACGTGTGCTAGCCTGTGAGTTTTTCTCTCCAACTAGCCTGGGTACTCAGGAAAGTGAGATCAACTTGGGTGTAGCTTCTGGGTGGCCTGACCTGTGCAAATAGGGGAGACAGTTGACATACAGATGAAAGGGGAGATGGGAAGCCATACAGAGGAAGGAGAAGATCAGGAACCAGAGATAAGATAATTCTGTAAATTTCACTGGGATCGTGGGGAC | 0.228
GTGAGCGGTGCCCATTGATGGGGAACTCCAAGTTTTATTTGTATTAAAACCTCTCTACAACATCATCACTTAACAGCAGCTAATTATAGTGCTGCATAATATCTTATTTTCATCTGTATGTTTACATAGTTTTTAATTAGCTGTAGTTATAATTTTTTGATTTACTTTTGATATATAATGTGAATCATTATATATTAGGGGTCCCCAACCCCTGGGCCATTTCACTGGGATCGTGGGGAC | 0.477
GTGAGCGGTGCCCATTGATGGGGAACGCATGAAGCGTTGGGTCCAACTGCATGAAGAGCACTGAGTCTCTCAGAGATGAGAGCATAAATGACTCAATCTTGATAGGTCTTGGTAAGCAAAGTAATCTAGAGCACATGGAATCACCAATAATTCTGCCTTTCAGAAGGCAGGATCCCCGCTCCAGATATCAGAGCCAATGGGTCTGGAAAGGCTGCATTTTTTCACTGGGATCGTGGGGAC | -0.0683
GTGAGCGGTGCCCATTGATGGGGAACATCTTCCCCCTCTTCCTTGCCCCACCAGCTCACCTACGGGGGTTATTTGCACAAAGGAAAATAAATAAAGCCGGCATTCGTTAACCCTCTTCTGGCGCAAACTGCTGTTTGCTCTGCATGAATCATGGTCCTTACGCGACGCCAGGCTCCGGGAGAGCAAAGCACCGTGTCAGGCGCATGATCCGGGGTGGCCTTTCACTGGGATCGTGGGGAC | 0.38

Set 2 — technique: competition protein-binding microarray; form: double-stranded DNA, one strand shown; matrix: in vitro; tested at: 2 µM; together with: Pho4 competitor, 0.05 µM; reading: higher = stronger binding
Target: Centromere-binding protein 1, full length, His-tagged (CBF1, Saccharomyces cerevisiae, UniProt P17106, residues 1-351)
UniProt P17106, sequence (whole entry, looked up): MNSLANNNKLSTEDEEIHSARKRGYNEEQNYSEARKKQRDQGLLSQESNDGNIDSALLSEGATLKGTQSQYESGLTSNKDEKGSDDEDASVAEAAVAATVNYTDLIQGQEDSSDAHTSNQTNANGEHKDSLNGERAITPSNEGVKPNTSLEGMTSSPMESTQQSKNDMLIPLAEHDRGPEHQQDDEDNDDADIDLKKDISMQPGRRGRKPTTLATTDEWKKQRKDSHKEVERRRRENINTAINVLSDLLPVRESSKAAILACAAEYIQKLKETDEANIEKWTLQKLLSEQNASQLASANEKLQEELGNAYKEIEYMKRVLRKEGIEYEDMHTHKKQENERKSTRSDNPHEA
Setting: whole 60-bp probe, lowest competitor level
Sequence | fluorescence intensity [a.u.]
CTAACGAAGGTTTGTCACGCTACTTACAAGCCAAGTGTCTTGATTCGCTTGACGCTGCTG | 217
ACTTCTCCATTCCGTCAGCTGATACTCTATTCGGTTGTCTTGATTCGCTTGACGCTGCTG | 435
ATCTTTCCCCGCATTCTCGTGGGTACCAAATAAGCTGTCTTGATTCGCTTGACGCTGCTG | 78.2
GTCTTGTCTCATTGCTTGGTGGGTGTCCCCACTTCAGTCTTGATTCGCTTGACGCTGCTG | 68.3
AAATTACTAAGTTGTCACGTAACTTACCCCGTATGAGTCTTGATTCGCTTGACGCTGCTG | 118
ATCCTAGCCCTAACGCATGTGCTACTTCAAGGAATTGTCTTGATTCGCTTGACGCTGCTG | 112
GTCTTGTCTCATTTTCACGTGTAATTCCCCACTTCAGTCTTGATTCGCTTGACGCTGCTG | 622
CTTTCCCGATCTTGTGCCGTGGGTGTAGCACATTTGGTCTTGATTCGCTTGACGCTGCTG | 59.5

Set 3 — target: UBE2E2 UBC core domain (UniProt Q96LR5); technique: yeast two-hybrid; matrix: yeast; setting: mostly zero background; baseline: not given; reading: higher = stronger interaction
UniProt Q96LR5, sequence (whole entry, looked up): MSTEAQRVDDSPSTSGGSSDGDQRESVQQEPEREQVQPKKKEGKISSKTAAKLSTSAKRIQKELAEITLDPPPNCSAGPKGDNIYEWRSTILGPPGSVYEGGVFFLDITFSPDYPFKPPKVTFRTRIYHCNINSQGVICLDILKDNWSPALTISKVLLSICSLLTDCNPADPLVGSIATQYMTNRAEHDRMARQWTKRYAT
B1: TRIM15 RING domain (UniProt Q9C019); chain SLKVVHELPACTLCAGPLEDAVTIPCGHTFCRLCLPALSQMGAQSSGKILLCPLCQEEEQAETPMA
B2: UBE4A RING domain (UniProt Q14139); chain LQQQEEETYADACDEFLDPIMSTLMCDPVVLPSSRVTVDRSTIARHLLSDQTDPFNRSPLTMDQIRPNTELKEKIQRWLAERKQQKEQLE
B3: MSL2 RING domain (UniProt Q9HCI7); chain LLPYFRQSLSCCVCGHLLQDPIAPTNSTCQHYVCKTCKGKKMMMKPSCSWCKDYEQFEENKQ
B4: TRIM55 RING domain (UniProt Q9BYV6); chain TMDNLEKQLICPICLEMFTKPVVILPCQHNLCRKCASDIFQASNPYLPTRGGTTMASGGRFRCPSCRHEVVLDRHG
B5: RFPL2 RING domain (UniProt O75678); chain MAALFQEASSCPVCSDYLEKPMSLECGCAVCLKCINSLQKEPHGEDLLCCCSSMVSRKNKIRR
B6: RNF149 RING domain (UniProt Q8NC42); chain EKGIDVDAENCAVCIENFKVKDIIRILPCKHIFHRICIDPWLLDHRTCPMCKLDVIKALGYW
Sequence | lacZ reporter activity
B1 (TRIM15 RING domain) | 0
LKQVSIRENCCSLCCDEVADTQLKPCGHSDLCMDCALQLETCPLCRKEIVSRIRQI (RSPRY1 RING domain (UniProt Q96DX4)) | 0
B2 (UBE4A RING domain) | 0
B3 (MSL2 RING domain) | 0
B4 (TRIM55 RING domain) | 0
FLKKLEQSFMCVCCQELVYQPVTTECFHNVCKDCLQRSFKAQVFSCPACRHDLGQNYIMI (UHRF2 RING domain (UniProt Q96PU4)) | 0
B5 (RFPL2 RING domain) | 0
B6 (RNF149 RING domain) | 0

Further values, each from its own experiment
Parent: viral docking peptide; KGVKRKLFAEDSS; partner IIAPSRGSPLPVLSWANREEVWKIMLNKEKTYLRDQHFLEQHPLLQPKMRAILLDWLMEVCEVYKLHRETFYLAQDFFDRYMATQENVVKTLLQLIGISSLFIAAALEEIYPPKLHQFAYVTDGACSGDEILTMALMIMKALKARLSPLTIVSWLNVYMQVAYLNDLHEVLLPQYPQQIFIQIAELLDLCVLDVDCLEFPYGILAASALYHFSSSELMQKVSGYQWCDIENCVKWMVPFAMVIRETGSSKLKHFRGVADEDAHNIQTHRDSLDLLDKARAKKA
Variant | target | assay | system | setting | scale | endpoint | result
KGVKGKLFAEDSS [R5G] | CCNE1, cyclin fold, Cln2 fusion (human) | yeast growth competition, sequencing | yeast | strong parent motif | baseline: not given, higher = stronger binding | normalised enrichment score | 0.0174

Excerpt of the above (set 2):
Sequence | fluorescence intensity [a.u.]
ATCTTTCCCCGCATTCTCGTGGGTACCAAATAAGCTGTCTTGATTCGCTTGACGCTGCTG | 78.2
GTCTTGTCTCATTGCTTGGTGGGTGTCCCCACTTCAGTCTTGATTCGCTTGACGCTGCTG | 68.3
